Assay results collected from several papers.
Numbered parts are unrelated; each lists some results of a single study. Substitutions count along the parent as printed.

Set 1
Target: Histone acetyltransferase KAT6A, winged helix 1, GST fusion (KAT6A, Homo sapiens, UniProt Q92794, residues 1-85)
Method: protein binding microarray
Molecule type: double-stranded DNA, one strand shown
Medium: in vitro
Tested at: not given
Setting: 8-mer, flanks averaged, mean of 2 arrays, mostly near background
Reference: not given
Direction: higher = stronger binding
Target sequence (chain): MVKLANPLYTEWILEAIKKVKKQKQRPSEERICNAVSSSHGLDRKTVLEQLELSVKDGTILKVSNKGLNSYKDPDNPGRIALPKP
`CATTTGAC` has an E-score of -0.0232.
`ACTTAATC` has an E-score of -0.139.
`GACAGGTA` gave an E-score of -0.14.
The E-score of `AATTGCAA` is reported as -0.117.
The E-score of `ATACGACA` is reported as -0.184.
`ACGCTTAC` gave an E-score of 0.145.
With `GCGGTCCA` the E-score was 0.235.
`TGCTCAAA` has an E-score of -0.241.
For `CGGATAAA`, the E-score was 0.0945.
For `ACGAAGAA`, the E-score was 0.0272.
`CGAGAGGA` gave an E-score of -0.129.
`ACTCTATG` has an E-score of -0.0551.
`ATTGGCAC` gave an E-score of -0.355.
`AAGCAAAG` has an E-score of -0.0637.
For `CCGGGCAG`, the E-score was 0.246.
With `GAGTAGGA` the E-score was -0.186.
For `CGCTTTTA`, the E-score was 0.288.
`CTCTGAAC` has an E-score of -0.0711.
With `CCATTTCG` the E-score was -0.029.
With `ACACATGG` the E-score was -0.153.
`GTCAAGAA` has an E-score of -0.146.
`TAATTCGA` gave an E-score of -0.232.
The E-score of `CGAGCGGC` is reported as 0.386.
`GCATCGAA` gave an E-score of -0.05.

Set 2
Target: ABI1, truncated, D143A, DHFR fusion (Arabidopsis thaliana)
Method: DHFR PCA, deep sequencing
Medium: yeast
Setting: methotrexate growth selection, single substitutions
Added: (+)-ABA 2500 µM
Reference: wild-type fitted maximum
Direction: higher = stronger binding
Starting sequence: PYL1, truncated, DHFR fusion (Arabidopsis thaliana); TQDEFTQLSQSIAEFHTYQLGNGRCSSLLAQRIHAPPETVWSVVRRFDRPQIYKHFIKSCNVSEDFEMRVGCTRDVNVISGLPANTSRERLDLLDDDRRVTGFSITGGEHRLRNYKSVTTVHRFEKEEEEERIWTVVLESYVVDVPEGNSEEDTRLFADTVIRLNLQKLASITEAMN
`P37F` — result for “relative binding score”: 71.1%.
Under “relative binding score”, `V143A` is recorded as 90%.
Under “relative binding score”, `T173I` is recorded as 99%.
For `Q7S`, “relative binding score” read 96.3%.
Under “relative binding score”, `S80F` is recorded as 87.6%.
Under “relative binding score”, `F124L` is recorded as 106%.
Under “relative binding score”, `E128S` is recorded as 103%.
For `S26P`, “relative binding score” read 53.2%.
`P83S`: “relative binding score” 89%.
Under “relative binding score”, `F47W` is recorded as 89%.
Under “relative binding score”, `Q167E` is recorded as 97.2%.
`T73S` — result for “relative binding score”: 94.3%.
Under “relative binding score”, `L94M` is recorded as 104%.
Under “relative binding score”, `F157S` is recorded as 12.3%.
`Q10E`: “relative binding score” 113%.

Set 3
Target: JUN, bZIP domain (human)
Method: DHFR protein complementation
Medium: yeast
Setting: single substitutions, most at no-binding floor
Reference: wild-type JUN-FOS pair
Direction: higher = stronger binding
Starting sequence: JUN, bZIP domain (human); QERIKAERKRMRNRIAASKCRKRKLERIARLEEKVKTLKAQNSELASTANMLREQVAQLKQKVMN
`V35K` has a binding fitness of -1.31 natural log.
`V35P` gave a binding fitness of -1.24 natural log.
With `L31I` the binding fitness was -1.27 natural log.
With `L31N` the binding fitness was -1.32 natural log.
`N42P` has a binding fitness of -1.38 natural log.
The binding fitness of `L38R` is reported as -1.35 natural log.
The binding fitness of `Q41W` is reported as -1.36 natural log.
`I28N` has a binding fitness of -1.26 natural log.
With `E32P` the binding fitness was -1.38 natural log.
`L45S` gave a binding fitness of -1.22 natural log.
`L52I` has a binding fitness of -1.36 natural log.

Set 4
Target: CCND2, cyclin fold, Cln2 fusion (human)
Method: yeast growth competition, sequencing
Medium: yeast
Setting: weak parent motif
Reference: not given
Direction: higher = stronger binding
Starting sequence: SLBP docking peptide (human); ARYKRKLLINDFG; partner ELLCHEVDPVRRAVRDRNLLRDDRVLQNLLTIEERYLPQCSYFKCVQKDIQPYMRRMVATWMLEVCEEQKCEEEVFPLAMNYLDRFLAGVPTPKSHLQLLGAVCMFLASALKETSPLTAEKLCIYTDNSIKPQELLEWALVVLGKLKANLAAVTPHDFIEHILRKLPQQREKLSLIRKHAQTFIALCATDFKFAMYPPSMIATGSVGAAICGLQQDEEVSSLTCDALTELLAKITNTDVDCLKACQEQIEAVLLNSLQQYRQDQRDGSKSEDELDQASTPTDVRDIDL
`A1M` — result for “normalised enrichment score”: 0.429.
Under “normalised enrichment score”, `Y3H` is recorded as 0.0995.
`F12A` — result for “normalised enrichment score”: 0.141.
For `R5Q`, “normalised enrichment score” read -0.109.
For `A1N`, “normalised enrichment score” read 0.492.
For `Y3T`, “normalised enrichment score” read -0.0462.
`G13C`: “normalised enrichment score” 0.284.
For `D11A`, “normalised enrichment score” read 0.107.
`N10G` — result for “normalised enrichment score”: 0.865.
`L8W`: “normalised enrichment score” 0.588.
For `R5G`, “normalised enrichment score” read 0.119.
`F12K` — result for “normalised enrichment score”: 0.231.
`N10D` — result for “normalised enrichment score”: 0.154.
Under “normalised enrichment score”, `I9E` is recorded as 0.00953.
Under “normalised enrichment score”, `D11P` is recorded as 0.692.
`N10I` — result for “normalised enrichment score”: 0.149.
`K4H`: “normalised enrichment score” 0.519.

Set 5
Target: Prothrombin, mature alpha-thrombin (F2, Homo sapiens, UniProt P00734)
Method: aptamer microarray, sandwich
Molecule type: DNA with 2'F-ANA
Medium: in vitro
Tested at: 200 nM
Setting: whole 15-mer aptamer, many near background
Added: Cy3 exosite-II aptamer, 400 nM
Direction: higher = stronger binding
Oligonucleotide: GGTTGGTGTGGTTGG
For `2'F-ANA at 1 3 5 6 7 9 11 14`, “mean fluorescence intensity” read 91.4 a.u.
`2'F-ANA at 2 3 5 8 9 14 15`: “mean fluorescence intensity” 52.8 a.u.
`2'F-ANA at 2 5 6 8 10 11 13 14`: “mean fluorescence intensity” 53.8 a.u.
`2'F-ANA at 1 2 3 5 6 10 12 13` — result for “mean fluorescence intensity”: 47.5 a.u.
`2'F-ANA at 4 5 7 8 12 13 15` — result for “mean fluorescence intensity”: 98.9 a.u.
`2'F-ANA at 2 3 5 6 7 8 9 11 12 13 15`: “mean fluorescence intensity” 119 a.u.
`2'F-ANA at 1 2 3 4 6 9 12 14`: “mean fluorescence intensity” 60.5 a.u.
`2'F-ANA at 1 4 5 6 7 8 10 11 12` — result for “mean fluorescence intensity”: 47.8 a.u.
For `2'F-ANA at 3 4 5 6 10 11 12 13 15`, “mean fluorescence intensity” read 73.3 a.u.
For `2'F-ANA at 3 5 7 13 14`, “mean fluorescence intensity” read 56 a.u.
For `2'F-ANA at 4 6 9 13 14`, “mean fluorescence intensity” read 69.4 a.u.
For `2'F-ANA at 3 8 11 15`, “mean fluorescence intensity” read 982 a.u.
`2'F-ANA at 4 5 6 7 8 9 14 15` — result for “mean fluorescence intensity”: 42.3 a.u.
`2'F-ANA at 3 4 5 6 9 10 11 13 15` — result for “mean fluorescence intensity”: 48.1 a.u.
For `2'F-ANA at 2 4 5 11 12 14`, “mean fluorescence intensity” read 54 a.u.
`2'F-ANA at 1 3 4 7 11 12 13 15`: “mean fluorescence intensity” 255 a.u.
Under “mean fluorescence intensity”, `2'F-ANA at 1 3 4 7 11 12 13` is recorded as 268 a.u.

Single results of other studies
With `PhoQ, residues 284 288 289 292 302 303 QWQEDG` the fold induction was 16.8 (PhoP, residues 12 14 15 18 19 IFFTR (Escherichia coli, UniProt P23836); Sort-seq, item: YFP reporter; E. coli; PhoQ-PhoP variant library, added: 10 µM Mg2+; reference: high Mg2+ state, higher = stronger signaling).

Excerpt of the above (set 1):
`ACTTAATC` has an E-score of -0.139.
`GACAGGTA` gave an E-score of -0.14.
The E-score of `AATTGCAA` is reported as -0.117.
The E-score of `ATACGACA` is reported as -0.184.
`ACGCTTAC` gave an E-score of 0.145.
With `GCGGTCCA` the E-score was 0.235.
